Experimental data collected from several papers.
Compare with care: the assays were run in different laboratories. Values joined by “and” are separate records of one study, mostly repeats; a detail may differ.
HTR2C: 5-hydroxytryptamine receptor 2C (HTR2C, Homo sapiens, UniProt P28335)

Structure (SMILES)	target	assay	system	conditions	endpoint	value
COC(=O)[C@H]1[C@H]2C[C@@H]3c4[nH]c5cc(OC)ccc5c4CCN3C[C@H]2C[C@@H](OC(=O)c2cc(OC)c(OC)c(OC)c2)[C@@H]1OC	Nedd8-cullin1 interaction	neddylation, AlphaScreen	–	100 µM	inhibition	19.8%
O=C(CN1CCO[C@@H](COc2cccnc2)C1)N1CCc2ccccc21	HTR2C	radioligand binding	–	concentration not given, added: [3H]mesulergine	inhibition	44.2%
COc1cc(-c2oc3cc(O)cc(O)c3c(=O)c2O[C@@H]2O[C@H](CO)[C@@H](O)[C@H](O)[C@H]2O[C@@H]2O[C@@H](C)[C@H](O)[C@@H](O)[C@H]2O)ccc1O	Estrogen receptor beta (ESR2, Homo sapiens, UniProt Q92731)	array formation, agonist	GFP-ERβ PRL-HeLa	1 h	EC50	7.22 µM
CC[C@@H]1[C@H](F)C(=O)N[C@@H]1COc1nccc2cc(C(N)=O)c(OC)cc12	Calcium/calmodulin-dependent protein kinase type II subunit beta (CAMK2B, Homo sapiens, UniProt Q13554)	ATP-site probe binding, ActivX profiling	THP-1 cell lysate	0.01 mM, Lys1 site	inhibition	1.4%
COc1cc(C(=O)NS(=O)(=O)c2ccccc2C)ccc1Cc1cn(C)c2ccc(NC(=O)OC3CCCC3)cc12	LRRC8A/LRRC8C (Homo sapiens, UniProt Q8IWT6+Q8TDW0, L134K/L136K)	ion current, whole-cell patch clamp	HCT LRRC8-/- cells	10 µM, +100 mV, L134K/L136K heteromers	inhibition	64% and 94.9% and 87.8% and 55.6% and 84.2%
O=C(NO)c1ccc(CN2CCCCc3ccccc32)c(F)c1	HTR2C	radioligand binding, PDSP radioligand binding	–	10 µM	inhibition	10.7%
O=C(CN1CCO[C@H](COc2cccc(Cl)c2)C1)N1CCc2ccccc21	HTR2C	radioligand binding	–	concentration not given, added: [3H]mesulergine	inhibition	47.2%
CN(C(=O)n1cnc(-c2ccc[n+]([O-])c2)c1)C1CCCCC1	5-hydroxytryptamine receptor 7 (HTR7, Homo sapiens, UniProt P34969)	–	–	10 µM	inhibition	-11.6%
NC/C(=C\F)COc1cccc(Cn2c(=S)[nH]c(=O)c3[nH]cnc32)c1	Protein-lysine 6-oxidase (Homo sapiens, UniProt P28300)	enzyme activity, inhibitor	–	3.333 µM	inhibition	16.6%
O=C(O)c1cn(C2CC2)c2cc(N3CCNCC3)c(F)cc2c1=O	DNA gyrase subunit A (gyrA, Escherichia coli K-12, UniProt P0AES4)	enzyme activity, inhibitor, DNA supercoiling	–	100 µM	inhibition	91.5%
c1ccc(OC[C@@H]2CN(CCN3CCc4ccccc43)CCO2)cc1	5-hydroxytryptamine receptor 2A (HTR2A, Homo sapiens, UniProt P28223)	radioligand binding	–	concentration not given, added: [3H]ketanserin	inhibition	73.7%
Cc1ccc(C(=O)C(C)CN2CCCCC2)cc1 (stereo not drawn)	Nedd8-cullin1 interaction	neddylation, AlphaScreen	–	100 µM	inhibition	23.5%

Some of these lines once more:
Structure (SMILES)	target	assay	system	conditions	endpoint	value
O=C(NO)c1ccc(CN2CCCCc3ccccc32)c(F)c1	HTR2C	radioligand binding, PDSP radioligand binding	–	10 µM	inhibition	10.7%
